{"data": "Measurements gathered from unrelated publications", "note": "Protocols differ between the studies behind these lines. ± gives the spread as reported.", "chain of UniProt Q8TF76 (whole entry, looked up)": "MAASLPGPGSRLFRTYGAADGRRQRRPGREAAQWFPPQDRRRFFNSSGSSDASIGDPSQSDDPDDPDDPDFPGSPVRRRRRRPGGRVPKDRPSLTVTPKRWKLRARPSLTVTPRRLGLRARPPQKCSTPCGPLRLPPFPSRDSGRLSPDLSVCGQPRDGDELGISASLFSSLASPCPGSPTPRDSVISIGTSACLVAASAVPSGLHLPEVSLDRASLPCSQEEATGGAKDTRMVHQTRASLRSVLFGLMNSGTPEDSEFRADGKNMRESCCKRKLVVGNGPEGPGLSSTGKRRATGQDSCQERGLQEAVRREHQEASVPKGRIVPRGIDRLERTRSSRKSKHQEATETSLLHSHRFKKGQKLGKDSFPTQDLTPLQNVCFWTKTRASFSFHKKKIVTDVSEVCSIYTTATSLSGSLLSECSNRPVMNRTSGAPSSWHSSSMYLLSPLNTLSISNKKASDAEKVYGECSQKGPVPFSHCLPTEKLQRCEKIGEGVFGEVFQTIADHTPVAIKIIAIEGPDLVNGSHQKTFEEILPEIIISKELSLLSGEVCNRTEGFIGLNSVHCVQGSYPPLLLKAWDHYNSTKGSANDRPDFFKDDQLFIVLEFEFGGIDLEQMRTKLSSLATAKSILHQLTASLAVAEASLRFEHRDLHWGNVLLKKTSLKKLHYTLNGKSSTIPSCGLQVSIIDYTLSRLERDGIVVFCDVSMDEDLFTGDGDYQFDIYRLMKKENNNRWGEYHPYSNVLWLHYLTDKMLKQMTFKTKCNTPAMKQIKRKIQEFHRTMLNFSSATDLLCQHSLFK"}
{"Structure (SMILES)": "Cc1[nH]nc2c1N=C(c1ccccc1Cl)c1cnc(N3CCOCC3)cc1N2", "target or system": "GABAA receptor muscimol site, rat", "test": "radioligand binding", "system": "brain", "setting": "10 µM", "quantity": "inhibition", "result": "-5%"}
{"Structure (SMILES)": "Cc1nn(-c2cccc(N)c2)c(=O)c2cnc(Nc3ccc(N4CCNCC4)cc3)nc12", "target or system": "HASPIN (Homo sapiens, UniProt Q8TF76)", "test": "enzyme activity, inhibitor", "quantity": "IC50", "result": "> 10 µM"}
{"Structure (SMILES)": "C[n+]1cc(NC(=O)c2ccc3ccc4ccc(C(=O)Nc5cc6ccccc6[n+](C)c5)nc4c3n2)cc2ccccc21", "target or system": "telomeric antiparallel G-quadruplex DNA", "test": "UV melting", "setting": "6 µM, 10 mM potassium, with: DNA 3 µM", "quantity": "delta Tm", "result": "> 40 °C"}
{"Structure (SMILES)": "Nc1ncc(-c2cc(-c3cnn(CC(F)(F)F)c3)ncc2F)nc1C(=O)NC1CNCC(F)C1 (stereo not shown)", "target or system": "MRCKA", "test": "KINOMEscan competition binding", "setting": "1 µM", "how to read": "relative to: DMSO control", "quantity": "remaining binding", "result": "97%"}
{"Structure (SMILES)": "CN1CCCNC(=O)c2cccc(c2)C(=O)NCCCN(C)CCCNc2cccc3c2C(=O)c2cccc(c2C3=O)NCCC1", "target or system": "SAS", "test": "RNA-seq, item: AZIN1-AS1 mRNA", "setting": "1 µM, 6 h", "how to read": "relative to: untreated cells", "quantity": "log2 fold change", "result": 1.38}
{"Structure (SMILES)": "O=C(Nc1cccc(C(=O)N2CCC(c3nc(-c4ccccc4)n[nH]3)CC2)c1)c1ccccc1", "target or system": "FSP1, ancestral", "test": "resazurin reduction, inhibitor", "setting": "pH 7.2, with: NADH, resazurin", "quantity": "IC50", "result": "0.912 ± 0.13 µM"}
{"Structure (SMILES)": "Cc1ncsc1-c1ccc(C(C)NC(=O)C2CC(O)CN2C(=O)C(NC(=O)CCCCCCCCCCN2CCCC(Nc3ncc(Cl)c(Nc4ccccc4S(=O)(=O)C(C)C)n3)C2)C(C)(C)C)cc1 (stereo not shown)", "target or system": "22Rv1", "test": "RNA-seq, item: ZNF471 mRNA", "setting": "concentration not given", "how to read": "relative to: DMSO", "quantity": "log2 fold change", "result": -1.58}
{"Structure (SMILES)": "Cc1cn(CC(=O)N(CCNC(=O)CN(CCNC(=O)CN(CCNC(=O)CN(CCNC(=O)CN(CCNC(=O)CN(CCNC(=O)CN(CCNC(=O)CN(CCN)C(=O)Cn2cnc3c(=O)[nH]c(N)nc32)C(=O)Cn2cnc3c(N)ncnc32)C(=O)Cn2cc(C)c(=O)[nH]c2=O)C(=O)Cn2cnc3c(=O)[nH]c(N)nc32)C(=O)Cn2cc(C)c(=O)[nH]c2=O)C(=O)Cn2cnc3c(=O)[nH]c(N)nc32)C(=O)Cn2cnc3c(N)ncnc32)CC(=O)NCCN(CC(=O)NCCOCCOCC(N)=O)C(=O)Cn2cnc3c(N)ncnc32)c(=O)[nH]c1=O", "target or system": "mismatched DNA TT", "test": "duplex formation, UV melting", "how to read": "relative to: complementary DNA", "quantity": "ΔTm", "result": "-13.8 °C"}
{"Structure (SMILES)": "CNS(=O)(=O)Nc1nccc(Cc2c(C)c3ccc(Oc4ncccc4F)cc3oc2=O)c1F", "target or system": "ZR-75-1", "test": "cell viability", "setting": "7 days", "quantity": "IC50", "result": "0.657 µM"}
{"Structure (SMILES)": "CC[C@H](C)[C@H](NC(=O)[C@H](CC(C)C)NC(=O)[C@H](C)NC(=O)[C@H](C)NC(=O)[C@@H]1CCCN1C(=O)[C@@H](NC(=O)[C@H](C)N)C(C)C)C(=O)N[C@@H](CC(C)C)C(=O)N[C@@H](CCCNC(=N)N)C(=O)N[C@@H](CCC(=O)O)C(=O)N[C@@H](CCCCN)C(=O)N[C@@H](CCCCN)C(=O)N[C@@H](CCCCN)C(=O)N[C@@H](CCCCNC(=O)CCCCCNC(=S)Nc1ccc2c(c1)C(=O)OC21c2ccc(O)cc2Oc2cc(O)ccc21)C(N)=O", "target or system": "XIAP (human)", "test": "DIABLO peptide pull-down", "setting": "concentration not given, 10-fold competition", "how to read": "relative to: empty beads", "quantity": "log2 fold change", "result": 8.58}
{"Structure (SMILES)": "CSCc1cn(-c2cccc(C(=O)N3CCC(c4nc(-c5ccccc5)n[nH]4)CC3)c2)nn1", "target or system": "FSP1, ancestral", "test": "resazurin reduction, inhibitor", "setting": "pH 7.2, with: NADH, resazurin", "quantity": "IC50", "result": "0.534 ± 0.06 µM"}
{"Structure (SMILES)": "C=CC(=O)N1[C@H](c2ccc3c(c2)OCO3)c2[nH]c3ccccc3c2C[C@@H]1C(=O)N1CCN(C)CC1", "target or system": "human cyclin E1 N112C-3xFLAG:CDK2", "test": "co-IP with TMT proteomics, item: THRAP3", "setting": "concentration not given, Q9Y2W1", "how to read": "relative to: wild type DMSO", "quantity": "relative co-enrichment", "result": "121%"}
{"Structure (SMILES)": "CC(C)OCCOCc1ccc(OCC(O)CN(N=O)C(C)C)cc1 (stereo not shown)", "target or system": "Salmonella typhimurium", "test": "Ames test", "system": "TA1535", "setting": "1580 µg/plate, 30 % rat S9", "how to read": "relative to: solvent control", "quantity": "revertant fold increase", "result": "1.6 fold"}
{"Structure (SMILES)": "COC1CN([C@H]2CC[C@H]([C@@]3(C)Oc4c(Cl)cc(C(=O)NCc5c(SC)cc(C)[nH]c5=O)c(C)c4O3)CC2)C1", "test": "RNA-seq, item: LZTFL1 mouse homolog", "system": "mouse, HT-1376 xenograft, whole blood", "setting": "dose not given", "how to read": "relative to: vehicle", "quantity": "log2 fold change", "result": 0.0614}
{"Structure (SMILES)": "C=CC(=O)Nc1cccc(Cn2ncc3cnc(Nc4cnn(CCOC)c4)nc32)c1", "target or system": "NEK2 human", "test": "binding, KINOMEscan", "setting": "100 nM", "how to read": "lower = stronger binding", "quantity": "percent of control", "result": "100%"}
{"Structure (SMILES)": "Fc1ccc(Nc2nc(NC3CCCCC3)c3cc(Br)ccc3n2)cc1F", "target or system": "β2AR/β1AR ICL1 chimera", "test": "β-arrestin2 recruitment, antagonist, BRET", "how to read": "relative to: isoprenaline maximal response", "quantity": "maximal inhibition", "result": "0.8%"}
{"Structure (SMILES)": "C[n+]1ccc(/C=N/NC(=O)c2cccc(C(=O)N/N=C/c3cc[n+](C)c4ccccc34)n2)c2ccccc21", "target or system": "human telomeric G-quadruplex DNA", "test": "UV melting", "setting": "6 µM, 100 mM potassium, with: DNA 3 µM", "quantity": "delta Tm", "result": "31.3 °C"}
{"Structure (SMILES)": "Fc1ccc(Nc2nc(NC3CCCCC3)c3cc(C(F)(F)F)ccc3n2)cc1F", "target or system": "β2AR/β1AR ICL1 chimera", "test": "β-arrestin2 recruitment, antagonist, BRET", "setting": "with: isoprenaline 1 µM", "quantity": "pIC50", "result": 6.2}
{"Structure (SMILES)": "O=C(Nc1cc(OCCN2CCCC2)c2ccccc2n1)c1cccc(C(=O)Nc2cc(OCCN3CCCC3)c3ccccc3n2)n1", "target or system": "human telomeric G-quadruplex DNA", "test": "FRET melting", "setting": "1 µM, pH 7.4, with: 60 mM potassium", "quantity": "ΔTm", "result": "22 ± 0.9 K"}
{"Structure (SMILES)": "C=C(NC(=O)c1csc(-c2nc3c(cc2O)-c2nc(cs2)C(=O)NC(C(C)O)C(=O)NC(=C(C)OC)c2nc(cs2)C(=O)NC2c4nc(cs4)C(=O)NC(COC(=O)c4c5c6c(cccc6n4O)COC(=O)C(OC4CC(C)(O)C(N(C)C)C(C)O4)C2OC5)c2nc-3cs2)n1)C(N)=O (stereo not shown)", "target or system": "Streptococcus pneumoniae", "system": "-4, immunocompromised mice, lung infection", "setting": "8 mg/kg/day, twice daily, 24 h post-dose", "quantity": "lung bacterial load", "result": "4.03 log CFU/g"}
{"Structure (SMILES)": "OB(O)c1sccc1/C=N/OCc1ccccc1", "target or system": "human pancreatic trypsin", "test": "enzyme activity, inhibitor", "quantity": "IC50", "result": "> 100 µM"}
{"Structure (SMILES)": "c1ccc(-c2n[nH]cc2-c2ccnc3ccccc23)nc1", "target or system": "CAK1 (Candida albicans)", "test": "kinase binding, MIB/MS competition", "system": "Candida albicans lysate", "setting": "10 µM", "how to read": "relative to: DMSO", "quantity": "log2 fold change", "result": -0.12}
{"Structure (SMILES)": "CCN(CC)CC(=O)Nc1cccc(-n2cc(-c3ccc4ccc(-c5cn(-c6cccc(NC(=O)CN(CC)CC)c6)nn5)cc4c3)nn2)c1", "target or system": "RCC4", "test": "PCR array, item: VEGFC", "setting": "5 x IC50, 6 h, normoxia", "how to read": "relative to: untreated", "quantity": "fold regulation", "result": "-1.61 fold"}
{"Structure (SMILES)": "Fc1ccc(Nc2nc(NC3CCCCC3)c3ccccc3n2)cc1F", "target or system": "β2AR/β1AR ICL1 chimera", "test": "β-arrestin2 recruitment, antagonist, BRET", "setting": "with: isoprenaline 1 µM", "quantity": "pIC50", "result": 5.7}
{"Structure (SMILES)": "NCCCn1cc(COc2cc(C(=O)Nc3cc(OCCN)c4ccccc4n3)nc(C(=O)Nc3cc(OCCN)c4ccccc4n3)c2)nn1", "target or system": "human telomeric G-quadruplex DNA", "test": "FRET melting", "setting": "1 µM, pH 7.4, with: 60 mM potassium", "quantity": "ΔTm", "result": "18.8 ± 0.6 K"}
{"note": "Some of these lines once more:"}
{"Structure (SMILES)": "C=CC(=O)N1[C@H](c2ccc3c(c2)OCO3)c2[nH]c3ccccc3c2C[C@@H]1C(=O)N1CCN(C)CC1", "target or system": "human cyclin E1 N112C-3xFLAG:CDK2", "test": "co-IP with TMT proteomics, item: THRAP3", "setting": "concentration not given, Q9Y2W1", "how to read": "relative to: wild type DMSO", "quantity": "relative co-enrichment", "result": "121%"}
{"Structure (SMILES)": "CC(C)OCCOCc1ccc(OCC(O)CN(N=O)C(C)C)cc1 (stereo not shown)", "target or system": "Salmonella typhimurium", "test": "Ames test", "system": "TA1535", "setting": "1580 µg/plate, 30 % rat S9", "how to read": "relative to: solvent control", "quantity": "revertant fold increase", "result": "1.6 fold"}
{"Structure (SMILES)": "COC1CN([C@H]2CC[C@H]([C@@]3(C)Oc4c(Cl)cc(C(=O)NCc5c(SC)cc(C)[nH]c5=O)c(C)c4O3)CC2)C1", "test": "RNA-seq, item: LZTFL1 mouse homolog", "system": "mouse, HT-1376 xenograft, whole blood", "setting": "dose not given", "how to read": "relative to: vehicle", "quantity": "log2 fold change", "result": 0.0614}
